Measurements collected from several papers.
Numbered parts are unrelated; each lists some results of a single study.

Study 1 — method: protein binding microarray; form: double-stranded DNA, one strand shown; sample: in vitro; tested at: not given; relative to: not given; reading: higher = stronger binding
Target: Histone acetyltransferase KAT6A, winged helix 2, GST fusion (KAT6A, Homo sapiens, UniProt Q92794, residues 85-181)
Setting: 8-mer, flanks averaged, mean of 2 arrays, mostly near background
Residues (chain): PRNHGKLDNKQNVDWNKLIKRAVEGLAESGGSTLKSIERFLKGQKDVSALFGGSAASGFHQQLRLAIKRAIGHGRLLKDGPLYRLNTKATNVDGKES
Oligonucleotide	E-score
ACGCCACT	-0.0411
AAATAGTA	-0.117
GTGTAATA	-0.0694
CGTCCGTA	-0.111
GCATGTAA	-0.191
AATCTATA	0.0608
GTAAGAAC	0.107
AATCTACA	0.0714
AACACTAA	-0.0229
AACTGGAG	-0.0565
CATTCTCC	-0.0377
AGTCACAA	-0.0423
CATTACGC	-0.0584
TCCGGCGA	0.205
ATCCTGCA	0.0554
ATTTCCAC	-0.0102
CGCGTCAC	0.119
GCCGAGGC	0.3
CGTGACCA	-0.0688
AGCTGCAT	-0.0796
GTACACGA	0.0176
CAAAGTGG	-0.007
ATAAATTG	0.148

Study 2 — method: aptamer microarray, sandwich; form: DNA with 2'F-ANA; sample: in vitro; tested at: 200 nM; together with: Cy3 exosite-II aptamer, 400 nM; reading: higher = stronger binding; oligonucleotide: GGTTGGTGTGGTTGG
Target: Prothrombin, mature alpha-thrombin (F2, Homo sapiens, UniProt P00734)
Setting: whole 15-mer aptamer, many near background
Modification	mean fluorescence intensity
2'F-ANA at 3 4 5 6 8 10 15	50.7 a.u.
2'F-ANA at 9 10	188 a.u.
2'F-ANA at 1 3 4 6 10 15	59.6 a.u.
2'F-ANA at 1 4 5 6 7 8 13 14	60.3 a.u.
2'F-ANA at 1 2 4 7 8 9 10 14 15	47.5 a.u.
2'F-ANA at 1 2 4 5 7 8 11 15	52.8 a.u.
2'F-ANA at 1 2 4 5 8 9 10 13	45.3 a.u.
2'F-ANA at 4 5 6 7 9 10 11 13 15	48.4 a.u.
2'F-ANA at 1 2 4 8 9 10 11 12 14 15	52.8 a.u.
2'F-ANA at 3 11 12	1430 a.u.
2'F-ANA at 1 3 4 5 6 7 8 10 13 14	48 a.u.
2'F-ANA at 1 2 3 5 6 7 8 9 10 12 14	59.5 a.u.
2'F-ANA at 8 9 12 13 14	234 a.u.
2'F-ANA at 1 2 3 4 5 9 10 12 14 15	47 a.u.
2'F-ANA at 1 4 8 9 10 11 13 15	46.8 a.u.
2'F-ANA at 2 3 4 7 8 10 13	250 a.u.

Study 3 — method: RNA Bind-n-Seq; form: RNA; sample: in vitro; tested at: not given; relative to: input RNA pool; reading: higher = stronger binding
Target: RING finger protein unkempt homolog, zinc fingers 1-6, GST-SBP tag (UNK, Homo sapiens, UniProt Q9C0B0, residues 30-357)
Setting: RNA with constant flanks, human and mouse sites, ends assumed
Shared flanks, not repeated: GGGAGUUCUACAGUCCGACGAUC … CAACAGAGGAUUGAGCAUCA
Residues (chain): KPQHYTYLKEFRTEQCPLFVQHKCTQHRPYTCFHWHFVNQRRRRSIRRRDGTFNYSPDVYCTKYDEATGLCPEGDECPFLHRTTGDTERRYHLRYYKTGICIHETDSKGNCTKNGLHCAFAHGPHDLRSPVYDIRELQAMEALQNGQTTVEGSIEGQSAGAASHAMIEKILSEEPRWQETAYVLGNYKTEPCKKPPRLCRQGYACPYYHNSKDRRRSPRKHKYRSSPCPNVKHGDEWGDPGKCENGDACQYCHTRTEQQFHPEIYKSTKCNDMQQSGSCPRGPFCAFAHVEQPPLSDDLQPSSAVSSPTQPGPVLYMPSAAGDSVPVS
Oligonucleotide	bound/input enrichment
UCACACUUAUAUUGUGGCAUAUAGUCAACAUGGAAGUAGACCAGCUCUGCUGAUUUGAAAUUUAGAUUUUUUAAAUUAUGUACUGGGGACAGGUUUUUGUCGCUUUACAUUGCUUCCUAG	7.55 ratio
CUCCCAAGUGGAGGAACCGCAAAGAACUGACAGAUGGGGUGCCCUGGCCGGCACCCCCUUGUGUAUAACGCCUGUAGACUUGUAUAUGACUCCUUUAAUAUUGUAAAGAUGCUGAUGUAC	0.494 ratio
GGCUCCAGCUACUUUGUCCGACUCUACACAGAGCCCUUGCUAGUGAACCUGCCCACCCCGGACUUCAGCAUGCCCUACAAUGUGAUCUGCCUUACGUGCACGGUGGUGGCCGUGUGCUAU	0.145 ratio
CUGAAGUGUUCCUGUUUGUCUUAUCCUGGCCCUGGCCAGACGUUUUCUUUGAUUUUUAAUUUUUUUUUUUUAUUAAAAGAUACCAGUAUGAGAUGAAAACUUCCAAUAAUUUGUCCUAUA	0.577 ratio
CCGCUCCAUUUCUCCAGUUCGGCUGCCGCCGCCACUGCUGCUCAGCUGGUGUCGGUGCCGCGCGUUUCCCCCACGUCGUCCCCGCAGCCUAUGGCCCAGGCCGCCUUGGGUAUUUCUGCU	0.166 ratio
CCUAUUCGGAUUAUUGAUUUAAAUUUAUGUCAGCAAGUUGAUGCUGGGUUGACAUUCAACAAAAAGGAGUUUGAAAACAGCUAUAUCUUUGAUAUCAACACCAUCGACCGGAUUUUCUAC	0.24 ratio
UACUGUGACCUACAGCAGGAAUCCAGUGGCAUCGCGGGAAUCCUGAAGUGGGUAAAACUGAUUGACAACUUUGAAGGGGAAUAUGACUACGUGACCAAUGAGGGGACGGUGUUCACAUUC	0.0975 ratio
AAGUUUCUGGACGGCAAUGAGCUCACCCUGGCUGACUGCAACCUGCUGCCAAAGCUUCACAUAGUACAGGUGGUGUGCAAAAAGUACAGAGGCUUCACCAUCCCAGAGGCAUUCCGUGGA	0.147 ratio
GUGGAUUCCCCGGAACAGCUGUCUGGAAUAAGGAUGAUUAGACAUCUCACUACUACUACUGACUAUCACACACUGGUUGCCAAUUAUAUGUCUGGGUUUCUCUCCUUAUUAGCUACAGGC	0.426 ratio
GAAGGGCAUUGCAACAACAUACAUUGCUUGGCCAAAGCCAUCAACCAGAUUGCUGCAGCUUUGUUUACAAUUCACAAAGGAAGCAUUGAAGACCGUCUUAAAGAAUUUCUGGCGCUUGCA	0.129 ratio
CUGGCUUCUGUGCCCGCCGGCGCUUUUUCCCGCCUGCACAAGCUGGCCCGGCUGGACAUGACCUCCAACCGCCUGACCACAAUCCCACCCGACCCACUCUUCUCCCGCCUGCCCCUGCUC	0.258 ratio

Study 4 — method: RNA Bind-n-Seq; form: RNA; sample: in vitro; tested at: 200 nM; setting: whole 134-nt RNA, ends assumed; together with: 150 mM KCl; relative to: input library; reading: higher = stronger binding
Target: Fragile X messenger ribonucleoprotein 1, C-terminal low-complexity region (Fmr1, Mus musculus, UniProt P35922)
Shared flanks, not repeated: GGGAGUUCUACAGUCCGACGAUC … UGGAAUUCUCGGGUGUCAAGG
Oligonucleotide	log2 enrichment
CUCAAGUCCUGUGCUACACAUCGUAUGUACCGAAUCGGGAAGGAAGGGGAAGGGAAAGUAUUAUGUUACGCCGUUCGGAUCUGCACUUCC	0.963
UAACUUUAGAGGAGGAUCUGAUGGAUAUGGCAGUGGACGUAGAUUUGGGGAUGGCUAUAAUGGGUAUGGAGGAGGACCUGGAGGUGGCAA	0.23
UCAAGUCCUGUGCUACACAUCGUAUGUACCGAAUCGGAAAAAGGAAAGGAAAGGAAAGUAUUAUGUUACGCCGUUCGGAUCUGCACUUCC	-0.968
UAACUUUAGAGGAGGAUCUGAUGGAUAUGGCAGUGGACGUGGAUUUGGGGAUGGCUAUAAUGGGUAUGGAGGAGGACCUGGAGGUUGCAA	0.0795
UCCUCAAGUCCUGUGCUACACAUCGUAUGUACCGAAUCGGUGGGGUGGUGGGAAAGUAUUAUGUUACGCCGUUCGGAUCUGCACUUCCAG	0.543
UCAAGUCCUGUGCUACACAUCGUAUGUACCGAAUCGGCCCCGGCCCCGGCCCCGGAAAGUAUUAUGUUACGCCGUUCGGAUCUGCACUUC	-0.326
AGUCCUGUGCUACACAUCGUAUGUACCGAAUCGGGUUUUUUUGGGAGGGUUUUUGGGAAAGUAUUAUGUUACGCCGUUCGGAUCUGCACU	0.438
UGGCCUUAUCACUCCUGGAGGCUUUUCAUCAGUGCCUGCUGGAAUGGAGACCCCUGAACUCAUUGAGCUGAGGAAGAAGAAGAUUGAGGA	-1.64
CUGUGCUACACAUCGUAUGUACCGAAUCGGGGAAAAAAAGGGGAAAAAAAGGAAAAAAAGGAAAGUAUUAUGUUACGCCGUUCGGAUCUG	-0.633
AAGUCCUGUGCUACACAUCGUAUGUACCGAAUCGGGGUUUGGGUUUGGGUUUGGGGAAAGUAUUAUGUUACGCCGUUCGGAUCUGCACUU	0.981
UCCUGUGCUACACAUCGUAUGUACCGAAUCGGGGCCCCCGGGCCCCCGGGCCCCCGGGGAAAGUAUUAUGUUACGCCGUUCGGAUCUGCA	-1.1
UCAAGUCCUGUGCUACACAUCGUAUGUACCGAAUCGGAAAAAGGUUUGGUUUGGAAAGUAUUAUGUUACGCCGUUCGGAUCUGCACUUCC	-0.814
GUCCUGUGCUACACAUCGUAUGUACCGAAUCAAACCCAAACCCCCCCAAAUUUUUAAAAAAGUAUUAUGUUACGCCGUUCGGAUCUGCAC	-0.158
UGGCCCUGGUGGCAUUCGGGGAGGAAGAGGUGGCCUCAUGGAUCGUGGUGGUCCCGGUGGAAUGUUCAGAGGUGGCCGUGGUGGAGACAG	0.122

Study 5 — method: protein-binding microarray; form: double-stranded DNA, one strand shown; sample: in vitro; tested at: 250 nM; setting: 60-bp whole probe; together with: salmon DNA 0.4 mg/ml; relative to: random background probes; reading: higher = stronger binding; shared flanks, not repeated: GCCTAGCAC … GTCTTGATTCGCTTGACGCTGCTG
Target: Interferon regulatory factor 5, full length, phosphomimetic (IRF5, Homo sapiens, UniProt Q13568-2, residues 1-514, K96S/S451D/S453D/S456D/S462D)
Oligonucleotide	log fluorescence
TTAGAACAGGGGTATCGATTAGTGCTA	2.35 z-score
TTAGGTTTCGGTCTGGGTTAGTGCTAG	10.5 z-score
TTAGGAATCGGGACTGGGTTAGTGCTA	-0.16 z-score
TTAGGACTGGGGTTCCGGTTAGTGCTA	0.0118 z-score
TTAGAACTGAGTCTCGATTCGTGCTAG	0.308 z-score
TCAATGTTACATTTATAACTGTGCTAG	0.546 z-score
GACGGTATCGGGTTTCGGGGCGTGCTA	3.9 z-score
TTAGGTTTCCTTTTCCTTAAGTGCTAG	1.96 z-score
GACGCTCTCAGTCTCGAGACGTGCTAG	0.094 z-score
GACGAACTAGGGTTTCGAGACGTGCTA	0.886 z-score
GACGTTCTCAGTATCGAGACGTGCTAG	1.82 z-score
TTTGGTTTCGGTATCGGTTAGTGCTAG	11.6 z-score
TTAGGTTTCTGTATCGGTTAGTGCTAG	8.17 z-score
TTAGGTTTCGATTCCGGTTAGTGCTAG	9.38 z-score
GACGGACTGGGGTATCGGGACGTGCTA	0.2 z-score
GACGGTATAGACTATCGGGACGTGCTA	0.919 z-score
GACGATATCAGTTTCGTGACGTGCTAG	4.08 z-score
TCAATTTTCTGAATGTCACTGTGCTAG	1.18 z-score
TTCTCTATTGCTTTCTCTTTGTGCTAG	2.95 z-score

Repeated from above (study 5):
Oligonucleotide	log fluorescence
TCAATTTTCTGAATGTCACTGTGCTAG	1.18 z-score
TTAGGTTTCGATTCCGGTTAGTGCTAG	9.38 z-score
TTAGGACTGGGGTTCCGGTTAGTGCTA	0.0118 z-score
GACGTTCTCAGTATCGAGACGTGCTAG	1.82 z-score
GACGGTATCGGGTTTCGGGGCGTGCTA	3.9 z-score
TTTGGTTTCGGTATCGGTTAGTGCTAG	11.6 z-score
TTAGAACAGGGGTATCGATTAGTGCTA	2.35 z-score
TTAGGAATCGGGACTGGGTTAGTGCTA	-0.16 z-score
GACGAACTAGGGTTTCGAGACGTGCTA	0.886 z-score
TTAGGTTTCCTTTTCCTTAAGTGCTAG	1.96 z-score
GACGGACTGGGGTATCGGGACGTGCTA	0.2 z-score
TTCTCTATTGCTTTCTCTTTGTGCTAG	2.95 z-score
GACGCTCTCAGTCTCGAGACGTGCTAG	0.094 z-score
